Values quoted from earlier work that unrelated publications cite.
Each numbered part shows a few of the values that one paper quotes.

Sample 1
SMILES: OCCN1CCN(CCC=C2c3ccccc3Sc3ccc(C(F)(F)F)cc32)CC1
Cell line: MCF7
Technique: microarray
Concentration: concentration not given
Relative to: DMSO
item	log2 fold change
VEZF1 mRNA	1.03
SLCO4C1 mRNA	1.31
USO1 mRNA	1.05

Further values, each from its own experiment
SMILES	target or system	observed	technique	concentration	setting	quantity	result
CC(C)(O)[C@H](F)CN1Cc2cc(NC(=O)c3cnn4cccnc34)c(N3CCOCC3)cc2C1=O	IRAK4	–	biochemical	–	–	Ki	1.4 nM
CCOC(=O)[C@@H]1CSCC(=O)N[C@H](CC)C(=O)N(C)[C@@H](C)C(=O)N[C@@H](CC(C)C)C(=O)N(C)[C@H](C)C(=O)N(CC(C)C)CC(=O)N[C@H](CC(C)C)C(=O)N(C)[C@H](C)C(=O)N[C@@H](CC(C)C)C(=O)N1C	MDCK	–	–	–	–	log permeability (Pe)	-5.04
CN1CCN(C(=O)C(C)(C)c2ccc(C(=O)Nc3cn4cc(-c5ccncc5)ccc4n3)cc2)CC1	DYRK1B	kinase activity	–	–	–	IC50	230 nM
Cl.Oc1cc2c(cc1O)[C@H]1c3ccccc3CN[C@@H]1CC2	Toxoplasma gondii	parasite growth	–	concentration not given	published screen	activity class	inactive
NC(=O)c1ccc2nc(-c3ccc(C4(N)CCC4)cc3)c(-c3ccccc3)n2n1	MKNK2	–	KINOMEscan	–	–	Kd	330 nM
